Measured values collected from several papers.
Every numbered part comes from another study and shows a few of its results, in no order.

Study 1
Target: Sal-like protein 4, full length isoform A (SALL4, Homo sapiens, UniProt Q9UJQ4, residues 1-1053)
Sequence of UniProt Q9UJQ4 (whole entry, looked up): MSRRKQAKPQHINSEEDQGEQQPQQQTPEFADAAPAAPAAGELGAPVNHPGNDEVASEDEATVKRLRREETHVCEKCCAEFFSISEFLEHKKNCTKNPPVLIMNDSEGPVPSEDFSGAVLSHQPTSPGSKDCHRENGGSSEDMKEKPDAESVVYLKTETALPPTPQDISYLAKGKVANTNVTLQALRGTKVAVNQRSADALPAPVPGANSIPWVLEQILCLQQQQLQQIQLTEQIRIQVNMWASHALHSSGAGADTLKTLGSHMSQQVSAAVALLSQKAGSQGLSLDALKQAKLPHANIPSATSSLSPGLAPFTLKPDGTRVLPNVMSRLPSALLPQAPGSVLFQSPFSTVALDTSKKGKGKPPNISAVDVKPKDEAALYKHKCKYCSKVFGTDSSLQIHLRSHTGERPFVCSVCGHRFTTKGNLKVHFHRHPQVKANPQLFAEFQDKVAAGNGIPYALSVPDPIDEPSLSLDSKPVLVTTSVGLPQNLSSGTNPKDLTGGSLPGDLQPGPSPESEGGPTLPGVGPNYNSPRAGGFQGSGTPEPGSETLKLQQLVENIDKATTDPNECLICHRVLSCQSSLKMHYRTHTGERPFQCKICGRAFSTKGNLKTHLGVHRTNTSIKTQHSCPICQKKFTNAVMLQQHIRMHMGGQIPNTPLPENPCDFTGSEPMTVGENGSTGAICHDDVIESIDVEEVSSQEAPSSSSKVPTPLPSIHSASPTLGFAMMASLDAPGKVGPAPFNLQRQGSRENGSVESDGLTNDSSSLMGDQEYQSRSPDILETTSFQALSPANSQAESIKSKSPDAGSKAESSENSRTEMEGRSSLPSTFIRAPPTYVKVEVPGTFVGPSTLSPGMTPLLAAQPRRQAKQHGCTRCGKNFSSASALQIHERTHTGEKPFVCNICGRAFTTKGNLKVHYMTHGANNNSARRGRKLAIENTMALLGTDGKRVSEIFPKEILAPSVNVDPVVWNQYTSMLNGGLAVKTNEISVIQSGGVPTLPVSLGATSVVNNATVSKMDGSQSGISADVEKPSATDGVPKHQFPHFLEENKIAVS
Technique: universal PBM
Molecule type: double-stranded DNA, one strand shown
Matrix: in vitro
Tested at: 600 nM
Setting: 8-mer, flanks averaged, mean of replicates
Reading: higher = stronger binding
With `CGTGAAGA` the E-score was -0.0758.
`AGGAGCCT` has an E-score of -0.272.
`GATTGACC` gave an E-score of -0.0677.

Study 2
Target: Histone acetyltransferase KAT6A, both winged helices, GST fusion (KAT6A, Homo sapiens, UniProt Q92794, residues 1-181)
Technique: protein binding microarray
Molecule type: double-stranded DNA, one strand shown
Matrix: in vitro
Tested at: not given
Setting: 8-mer, flanks averaged, mean of 2 arrays, mostly near background
Relative to: not given
Reading: higher = stronger binding
Target sequence (chain): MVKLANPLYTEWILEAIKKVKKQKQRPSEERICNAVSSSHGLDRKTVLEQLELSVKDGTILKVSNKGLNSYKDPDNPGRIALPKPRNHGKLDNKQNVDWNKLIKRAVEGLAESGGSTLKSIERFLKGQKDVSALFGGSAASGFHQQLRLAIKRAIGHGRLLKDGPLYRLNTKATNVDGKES
`GCTGAAGA` gave an E-score of -0.0877.
`CAGTTTCA` has an E-score of -0.0811.
With `AAGCTGCC` the E-score was -0.0374.

Study 3
Target: PABPC1L2, full length, GST fusion (mouse, UniProt A0ABA7IW68)
Technique: RNAcompete
Molecule type: RNA
Matrix: in vitro
Tested at: 20 nM
Setting: 7-mer, probes averaged, single round
Relative to: mean of 7-mers
Reading: higher = stronger binding
Residues (chain): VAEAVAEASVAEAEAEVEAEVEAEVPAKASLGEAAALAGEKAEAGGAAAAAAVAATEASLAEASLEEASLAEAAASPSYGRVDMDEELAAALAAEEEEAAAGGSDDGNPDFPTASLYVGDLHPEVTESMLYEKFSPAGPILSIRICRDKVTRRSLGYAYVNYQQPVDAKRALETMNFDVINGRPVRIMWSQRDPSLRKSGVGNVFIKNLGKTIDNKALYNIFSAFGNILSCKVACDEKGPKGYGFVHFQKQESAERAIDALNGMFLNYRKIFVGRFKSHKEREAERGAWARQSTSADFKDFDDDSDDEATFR
For `UCAGUUG`, the 7-mer Z-score was -0.229.
The 7-mer Z-score of `GCAACAC` is reported as 0.0696.
`GUUUCCA` has a 7-mer Z-score of -0.324.

Single results of other studies
The fold induction of `PhoQ, residues 284 288 289 292 302 303 ASTSDA` is reported as 2.57 (PhoP, residues 12 14 15 18 19 NYFTV (Escherichia coli, UniProt P23836); Sort-seq, measured: YFP reporter; E. coli; PhoQ-PhoP variant library, added: 10 µM Mg2+; relative to: high Mg2+ state, higher = stronger signaling).

Repeated from above (study 1):
`GATTGACC` gave an E-score of -0.0677.
